Results from different studies.
Each line is one published result; not all experiments were run side by side. Several values in a cell are separate wells, animals, samples, runs or records.
SLC6A3: Sodium-dependent dopamine transporter (SLC6A3, Homo sapiens, UniProt Q01959)
Chain of UniProt Q01959 (whole entry, unmodified, looked up): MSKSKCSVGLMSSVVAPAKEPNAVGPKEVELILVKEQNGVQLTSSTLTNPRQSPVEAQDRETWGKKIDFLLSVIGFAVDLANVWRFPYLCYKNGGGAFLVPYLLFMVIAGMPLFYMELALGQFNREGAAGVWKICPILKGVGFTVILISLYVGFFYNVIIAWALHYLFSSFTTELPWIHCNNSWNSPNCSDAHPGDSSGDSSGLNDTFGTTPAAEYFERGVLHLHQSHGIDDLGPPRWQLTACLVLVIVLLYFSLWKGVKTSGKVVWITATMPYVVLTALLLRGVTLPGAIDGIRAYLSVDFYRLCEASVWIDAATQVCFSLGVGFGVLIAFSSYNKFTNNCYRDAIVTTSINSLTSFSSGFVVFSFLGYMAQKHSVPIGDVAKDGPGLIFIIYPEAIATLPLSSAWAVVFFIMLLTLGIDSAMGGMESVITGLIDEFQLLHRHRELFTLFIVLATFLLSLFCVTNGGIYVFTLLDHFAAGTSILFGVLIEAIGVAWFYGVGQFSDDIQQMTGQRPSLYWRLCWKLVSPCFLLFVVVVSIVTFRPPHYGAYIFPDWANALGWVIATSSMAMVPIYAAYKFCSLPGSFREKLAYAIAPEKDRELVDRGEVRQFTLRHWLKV

C[C@@H]1COCCN1c1nc(NCc2cccnc2C(F)(F)F)c2cccnc2n1  IC50 (SLC6A3; binding; CEREP panel): > 100 µM
CS(C)(=O)=Nc1ccc(-c2ccc(-c3nc4cc(O[C@@H]5CO[C@H]6[C@@H]5OC[C@H]6O)[nH]c4cc3F)cc2)cc1  inhibition (SLC6A3; ligand displacement, radioligand; 10 µM): 13%
CCO[C@H]1[C@H](O)[C@@H](N)[C@@H](O[C@H]2[C@H](O[C@@H]3O[C@H](CO)[C@@H](O[C@H]4O[C@@H](CN)[C@@H](O)[C@H](O)[C@H]4N)[C@H]3O)[C@@H](O)[C@H](N)C[C@@H]2N)O[C@@H]1CO  specific binding (SLC6A3; radioligand binding; 10 µM, 1% DMSO): 1%
Cc1sc2c(c1C)C(c1ccc(Cl)cc1)=NC(CC(=O)OC(C)(C)C)c1nnc(C)n1-2 (stereo not shown)  inhibition (SLC6A3; ligand displacement, radioligand; 1 µM): -7%
CCc1nnc(-c2c(OC)cc(-c3cnc4cc(-c5cnn(C)c5)ccn34)cc2OC)o1  remaining binding (SLC6A3; antagonist radioligand, radioligand binding; 10 µM, SafetyScreen44 dopamine transporter replicate 2; lower = stronger displacement): 92.6%
C/C(=N\OCCCN1CCCCC1)c1ccc(C(F)(F)F)cc1  inhibition (SLC6A3; uptake, inhibitor; 10 µM): 22.8%
CN[C@@H]1[C@H](O)[C@H](NC)[C@H]2O[C@]3(O)[C@H](O[C@@H]2[C@H]1O)O[C@H](C)C[C@H]3NC(=O)Cc1cc(Cl)ccn1  inhibition (SLC6A3; ligand displacement, radioligand; 10 µM): 6%
O=C(O)c1ccc(-c2nc(-c3ccccc3Cl)c3sccn23)cc1  specific binding (SLC6A3; radioligand binding, safety screen panel; 10 µM; relative to: control): 110% and 104%
N[C@H](C(=O)N1CCCC1)C1CCN(c2nccc3c(-c4ncc(Cl)cc4Cl)cccc23)CC1  inhibition (SLC6A3; ligand displacement; 10 µM): 25%
CCOCC1C(c2ccc(Cl)c(Cl)c2)CC2CCC1N2C (stereo not shown)  remaining activity (SLC6A3 (Homo sapiens, UniProt Q01959, F326A); dopamine uptake; 0.002 µM, 0.03333 h, F326A mutant, with: [3H]dopamine; relative to: no inhibitor): 106%
